Measurements from different studies.
± marks the error that the study gave.
SLC22A7: Solute carrier family 22 member 7 (SLC22A7, Homo sapiens, UniProt Q9Y694)
Chain of UniProt Q9Y694 (whole entry, looked up): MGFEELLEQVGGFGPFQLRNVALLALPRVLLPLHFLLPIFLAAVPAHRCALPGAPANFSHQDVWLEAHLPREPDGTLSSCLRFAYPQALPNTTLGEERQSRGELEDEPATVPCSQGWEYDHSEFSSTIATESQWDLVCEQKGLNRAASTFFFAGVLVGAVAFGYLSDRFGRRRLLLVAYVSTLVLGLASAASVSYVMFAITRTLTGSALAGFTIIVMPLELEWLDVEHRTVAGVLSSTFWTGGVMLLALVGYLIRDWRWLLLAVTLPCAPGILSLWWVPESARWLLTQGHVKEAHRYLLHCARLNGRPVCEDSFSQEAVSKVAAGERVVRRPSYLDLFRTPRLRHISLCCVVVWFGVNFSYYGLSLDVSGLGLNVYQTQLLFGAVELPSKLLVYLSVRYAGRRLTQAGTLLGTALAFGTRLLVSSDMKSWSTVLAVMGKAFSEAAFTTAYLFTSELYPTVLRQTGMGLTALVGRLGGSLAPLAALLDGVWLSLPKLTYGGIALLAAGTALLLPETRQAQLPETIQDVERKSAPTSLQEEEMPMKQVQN
CYP2B6: Cytochrome P450 2B6 (CYP2B6, Homo sapiens, UniProt P20813)
Chain of UniProt P20813 (whole entry, looked up): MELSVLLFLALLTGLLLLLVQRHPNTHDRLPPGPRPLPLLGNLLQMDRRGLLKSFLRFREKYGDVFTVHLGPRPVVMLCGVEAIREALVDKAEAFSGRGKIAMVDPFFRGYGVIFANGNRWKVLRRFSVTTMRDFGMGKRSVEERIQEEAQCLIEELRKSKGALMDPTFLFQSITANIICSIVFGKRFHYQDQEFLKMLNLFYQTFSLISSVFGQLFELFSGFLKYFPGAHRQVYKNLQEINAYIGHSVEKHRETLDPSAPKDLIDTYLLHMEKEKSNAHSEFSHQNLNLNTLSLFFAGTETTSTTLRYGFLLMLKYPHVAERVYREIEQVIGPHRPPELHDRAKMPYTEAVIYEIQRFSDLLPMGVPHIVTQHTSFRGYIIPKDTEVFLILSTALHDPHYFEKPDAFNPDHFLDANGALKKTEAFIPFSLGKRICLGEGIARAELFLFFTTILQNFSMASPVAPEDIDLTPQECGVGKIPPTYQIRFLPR
AHR: Aryl hydrocarbon receptor (AHR, Homo sapiens, UniProt P35869)
Chain of UniProt P35869 (whole entry, looked up): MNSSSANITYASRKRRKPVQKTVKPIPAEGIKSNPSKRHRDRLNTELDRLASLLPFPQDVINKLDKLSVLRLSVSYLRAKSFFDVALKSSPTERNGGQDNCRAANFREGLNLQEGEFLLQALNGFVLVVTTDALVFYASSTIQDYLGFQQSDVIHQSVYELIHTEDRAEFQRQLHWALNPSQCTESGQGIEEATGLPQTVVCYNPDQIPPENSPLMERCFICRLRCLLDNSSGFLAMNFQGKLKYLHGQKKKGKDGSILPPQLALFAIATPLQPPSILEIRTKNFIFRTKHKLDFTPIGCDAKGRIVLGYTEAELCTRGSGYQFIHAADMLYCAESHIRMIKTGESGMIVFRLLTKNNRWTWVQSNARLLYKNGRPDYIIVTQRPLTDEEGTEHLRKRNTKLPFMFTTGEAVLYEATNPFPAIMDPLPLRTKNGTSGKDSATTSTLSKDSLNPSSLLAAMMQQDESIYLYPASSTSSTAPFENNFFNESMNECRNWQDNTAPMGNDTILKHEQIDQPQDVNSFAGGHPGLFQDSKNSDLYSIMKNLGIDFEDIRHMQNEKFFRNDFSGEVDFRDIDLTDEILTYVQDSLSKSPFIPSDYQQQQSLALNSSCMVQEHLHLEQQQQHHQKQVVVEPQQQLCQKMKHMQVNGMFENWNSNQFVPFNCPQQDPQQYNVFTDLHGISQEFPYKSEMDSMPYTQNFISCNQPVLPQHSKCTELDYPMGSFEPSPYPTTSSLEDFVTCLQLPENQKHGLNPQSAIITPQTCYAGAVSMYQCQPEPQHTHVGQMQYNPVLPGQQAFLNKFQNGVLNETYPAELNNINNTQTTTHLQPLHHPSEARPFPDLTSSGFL
CYP3A4: Cytochrome P450 3A4 (CYP3A4, Homo sapiens, UniProt P08684)
Chain of UniProt P08684 (whole entry, looked up): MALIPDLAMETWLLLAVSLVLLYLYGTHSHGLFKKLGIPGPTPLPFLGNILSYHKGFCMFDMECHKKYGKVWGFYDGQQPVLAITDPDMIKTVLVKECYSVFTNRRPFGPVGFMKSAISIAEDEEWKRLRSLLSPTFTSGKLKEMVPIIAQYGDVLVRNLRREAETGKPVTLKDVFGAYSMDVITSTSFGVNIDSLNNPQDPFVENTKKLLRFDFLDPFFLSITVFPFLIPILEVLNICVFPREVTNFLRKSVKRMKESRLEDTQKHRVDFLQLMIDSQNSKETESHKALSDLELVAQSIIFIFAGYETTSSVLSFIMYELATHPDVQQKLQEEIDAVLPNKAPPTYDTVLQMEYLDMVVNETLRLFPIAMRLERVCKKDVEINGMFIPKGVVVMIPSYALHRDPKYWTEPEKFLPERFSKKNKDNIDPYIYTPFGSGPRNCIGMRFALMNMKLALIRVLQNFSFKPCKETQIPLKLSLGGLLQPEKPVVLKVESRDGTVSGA
HDAC6 ZnF-UBD domain: Protein deacetylase HDAC6, ZnF-UBD domain (HDAC6, Homo sapiens, UniProt Q9UBN7)
Chain of UniProt Q9UBN7 (whole entry, looked up): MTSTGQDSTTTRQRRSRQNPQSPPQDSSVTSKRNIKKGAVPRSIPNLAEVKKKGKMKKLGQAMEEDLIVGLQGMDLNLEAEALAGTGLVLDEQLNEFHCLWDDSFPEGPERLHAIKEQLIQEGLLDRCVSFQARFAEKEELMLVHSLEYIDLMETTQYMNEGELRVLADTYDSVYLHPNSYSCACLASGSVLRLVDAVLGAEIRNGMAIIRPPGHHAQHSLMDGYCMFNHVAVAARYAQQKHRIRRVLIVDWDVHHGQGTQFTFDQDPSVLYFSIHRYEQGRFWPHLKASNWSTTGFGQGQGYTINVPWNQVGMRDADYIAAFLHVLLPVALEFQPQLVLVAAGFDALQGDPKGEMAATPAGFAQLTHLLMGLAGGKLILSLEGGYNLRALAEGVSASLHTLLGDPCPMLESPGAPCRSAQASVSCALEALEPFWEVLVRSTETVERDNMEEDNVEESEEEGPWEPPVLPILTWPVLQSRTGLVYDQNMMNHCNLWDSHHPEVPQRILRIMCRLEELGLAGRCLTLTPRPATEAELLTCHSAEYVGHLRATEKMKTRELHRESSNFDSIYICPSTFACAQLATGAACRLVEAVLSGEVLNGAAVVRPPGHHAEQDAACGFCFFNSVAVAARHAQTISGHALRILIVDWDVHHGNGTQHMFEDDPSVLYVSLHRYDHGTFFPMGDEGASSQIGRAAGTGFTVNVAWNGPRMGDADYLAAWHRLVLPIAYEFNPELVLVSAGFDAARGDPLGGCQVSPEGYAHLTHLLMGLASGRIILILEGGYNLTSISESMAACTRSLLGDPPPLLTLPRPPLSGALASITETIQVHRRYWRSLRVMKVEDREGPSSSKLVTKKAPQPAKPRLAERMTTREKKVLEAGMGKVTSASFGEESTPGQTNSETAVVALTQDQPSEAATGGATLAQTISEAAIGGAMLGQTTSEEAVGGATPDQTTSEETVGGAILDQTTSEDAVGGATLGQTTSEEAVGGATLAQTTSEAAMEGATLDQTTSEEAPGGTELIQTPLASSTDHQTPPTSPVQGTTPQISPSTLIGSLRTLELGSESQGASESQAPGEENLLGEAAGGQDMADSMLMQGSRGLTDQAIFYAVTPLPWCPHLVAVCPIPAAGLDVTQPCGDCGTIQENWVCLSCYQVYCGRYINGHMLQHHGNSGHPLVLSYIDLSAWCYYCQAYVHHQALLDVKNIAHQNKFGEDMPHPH
Chain of UniProt Q4U2R8 (whole entry, looked up): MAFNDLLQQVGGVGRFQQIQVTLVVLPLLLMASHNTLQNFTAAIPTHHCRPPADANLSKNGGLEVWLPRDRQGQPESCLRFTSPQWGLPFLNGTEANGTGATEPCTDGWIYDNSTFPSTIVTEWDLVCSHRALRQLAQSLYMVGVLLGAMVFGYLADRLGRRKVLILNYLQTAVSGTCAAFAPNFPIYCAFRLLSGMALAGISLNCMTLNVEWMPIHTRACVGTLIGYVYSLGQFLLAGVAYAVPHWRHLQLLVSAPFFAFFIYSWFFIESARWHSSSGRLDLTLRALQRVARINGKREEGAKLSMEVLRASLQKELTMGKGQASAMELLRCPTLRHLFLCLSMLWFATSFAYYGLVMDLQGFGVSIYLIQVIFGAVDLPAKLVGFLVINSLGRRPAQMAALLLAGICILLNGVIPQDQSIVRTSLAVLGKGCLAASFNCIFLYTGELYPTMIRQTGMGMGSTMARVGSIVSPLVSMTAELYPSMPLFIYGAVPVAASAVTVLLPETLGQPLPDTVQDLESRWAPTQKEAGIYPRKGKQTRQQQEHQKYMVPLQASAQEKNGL
Chain of UniProt O70423 (whole entry, looked up): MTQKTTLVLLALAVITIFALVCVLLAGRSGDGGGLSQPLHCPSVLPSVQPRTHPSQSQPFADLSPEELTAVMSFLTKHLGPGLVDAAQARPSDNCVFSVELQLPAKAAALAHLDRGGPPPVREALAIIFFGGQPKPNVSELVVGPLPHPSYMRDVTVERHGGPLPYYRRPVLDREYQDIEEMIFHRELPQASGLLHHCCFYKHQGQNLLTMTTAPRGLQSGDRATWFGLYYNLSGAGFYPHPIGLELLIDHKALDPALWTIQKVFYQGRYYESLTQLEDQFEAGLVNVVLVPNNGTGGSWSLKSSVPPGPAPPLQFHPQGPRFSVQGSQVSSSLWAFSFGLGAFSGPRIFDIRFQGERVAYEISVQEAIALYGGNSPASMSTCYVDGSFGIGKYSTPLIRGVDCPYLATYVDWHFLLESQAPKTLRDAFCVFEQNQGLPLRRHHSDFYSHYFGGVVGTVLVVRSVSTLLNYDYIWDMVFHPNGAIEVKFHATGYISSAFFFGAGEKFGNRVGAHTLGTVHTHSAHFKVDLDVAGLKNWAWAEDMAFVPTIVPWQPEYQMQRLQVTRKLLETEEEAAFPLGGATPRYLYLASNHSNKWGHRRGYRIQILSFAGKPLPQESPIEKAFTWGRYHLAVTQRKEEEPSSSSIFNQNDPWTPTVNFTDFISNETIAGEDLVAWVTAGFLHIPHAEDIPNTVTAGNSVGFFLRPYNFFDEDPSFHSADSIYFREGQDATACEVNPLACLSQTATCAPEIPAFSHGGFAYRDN

| Structure (SMILES) | tested on | assay | system | conditions | scale | measurement | result |
| --- | --- | --- | --- | --- | --- | --- | --- |
| CC(C)c1nc(N(C)S(C)(=O)=O)nc(-c2ccc(F)cc2)c1/C=C/[C@@H](O)C[C@@H](O)CC(=O)O | OATP |  | cynomolgus monkey hepatocytes | 37 °C, 10% monkey serum, with: 200 µM rifamycin SV |  | uptake clearance | 1.5 µL/min/10⁶ cells |
| CCCNC(C)C(=O)Nc1c(C)csc1C(=O)OC (centres unmarked) | H+/organic cation antiporter | cell uptake | hCMEC/D3 |  |  | intrinsic clearance | 3.9 µL/min/mg protein |
| COc1cc(CC(=O)O)ccc1O | SLC22A7 | substrate | HEK293 control cells |  |  | uptake rate | 109 ± 4.4 pmol/min/mg protein |
| O=c1[nH]c(=O)c(Cc2cccc(C(F)(F)F)c2)c([C@H]2CC[C@H](c3ccccc3)CC2)[nH]1 | Solute carrier family 22 member 6 (SLC22A6, Homo sapiens, UniProt Q4U2R8) | uptake, inhibitor | HEK cells expressing SLC22A6 | with: tenofovir |  | IC50 | > 1 µM |
| NCc1cc2c(cc1F)C(=O)N(C1CCC(=O)NC1=O)C2 (centres unmarked) | Amine oxidase [copper-containing] 3 (Mus musculus, UniProt O70423) | substrate, LC-MS/MS | recombinant mouse enzyme | 10 µM, 8 h, pH 7.4, with: inhibitor 0.25 µM |  | concentration | 7.5 µM |
| Cc1cc(Nc2ccc(S(F)(F)(F)(F)F)cc2)n2nc(C(C)(F)F)nc2n1 | Plasmodium falciparum | LC-MS/MS | malaria patients, plasma | oral, 250 mg |  | Cmax | 4250 ng/mL |
| COc1cccc(-c2n[nH]c(SCc3ccccn3)n2)c1OC | primary human lymphocytes |  |  | 0.063 mg/mL, 3 h, with: rat liver S9 |  | structural aberrations per 100 cells | 1 |
| N#C[C@H](C[C@@H]1CCCNC1=O)NC(=O)[C@H](CC1CC1)NC(=O)c1cc2cccc(Cl)c2[nH]1 | CYP2B6 | ISEF abundance scaling |  | 2 µM, pH 7.4 |  | fraction metabolised | < 1% |
| CC(C)OC(=O)c1cccc(C(=O)c2c[nH]c3ccccc23)n1 | AHR | reporter gene, agonist, XRE luciferase | HepG2 | 10 µM | baseline: ITE | activity at 10 µM | 42% |
| CC[C@@H]1[C@H](F)C(=O)N[C@@H]1COc1nccc2cc(C(N)=O)c(OC)cc12 | Serine/threonine-protein kinase 16 (STK16, Homo sapiens, UniProt O75716) | ATP-site probe binding, ActivX profiling | THP-1 cell lysate | 0.2 mM, Lys2 site |  | inhibition | 35.1% |
| CC(C)=CCc1c(O)cc2c(c1O)C(=O)C[C@@H](c1ccc(O)cc1)O2 | human CYP2D6 |  |  | 1 µM, pH 7.4 |  | inhibition | < 10% |
| Cn1c(=O)c2c(ncn2C)n(C)c1=O | Cytochrome P450 1A2 (CYP1A2, Homo sapiens, UniProt P05177) |  | human, plasma | oral, 200 mg, day 1, alone, arithmetic mean |  | half-life | 5.04 h |
| CC(C)=CCc1c(O)cc(O)c2c1O[C@H](c1ccc(O)cc1)CC2=O | human CYP2D6 |  |  | 1 µM, pH 7.4 |  | inhibition | < 10% |
| Cc1oc2ccccc2c1Cc1cc(I)c(OCC(=O)O)c(I)c1 | Voltage-gated inwardly rectifying potassium channel KCNH2 (KCNH2, Homo sapiens, UniProt Q12809) | potassium current, whole-cell patch clamp | HEK293 expressing hERG1 | 10 µM, 10 mM K+ |  | activation V1/2 | -19.6 mV |
| C[C@H]1CN(C2COC2)CCN1c1ccc(Nc2cc(-c3ccnc(N4CCn5c(cc6c5CC(C)(C)C6)C4=O)c3CO)cn(C)c2=O)nc1 | human CYP2C19 |  | human liver microsomes | 1 µM, 60 min, pH 7.4, with: (+)-N-3-benzylnirvanol 2 µM, NADPH | baseline: 0 min | remaining compound | 56.2 ± 5.7% |
| Cc1cc(Nc2ncnc3ccc(NC4=NC(C)(C)CO4)cc23)ccc1Oc1ccn2ncnc2c1 | CYP3A4 |  | human, plasma | oral, 300 mg, day 1, single dose alone |  | AUC(0-inf), geometric mean | 3350 ng·h/mL |
| CCCCC1=NC2(CCCC2)C(=O)N1Cc1ccc(-c2ccccc2S(=O)(=O)Nc2noc(C)c2C)c(COCC)c1 | CYP3A4 | substrate | human male, plasma | oral, with: itraconazole | baseline: with over without itraconazole | Cmax ratio | 1.25 |
| C=CC(=O)N1C[C@H](Nc2ncnc3[nH]ccc23)CC[C@@H]1C | CYP3A | substrate | human, plasma | oral, 30 mg single dose, cpd alone |  | AUC(0-t) | 264 ng·h/mL |
| C[S+](C)[O-] | human HLA-A*24:02 peptide complex | nanoDSF |  | 20% (v/v), pH 7.6, ramp 1.0 °C/min |  | melting temperature | 48.9 ± 0.1 °C |

| Structure (SMILES) | tested on | assay | system | conditions | scale | measurement | result |
| --- | --- | --- | --- | --- | --- | --- | --- |
| CN1C2CCCC1CC(NC(=O)c1nn(C)c3ccccc13)C2 (centres unmarked) | H+/organic cation antiporter | cell uptake | hCMEC/D3 |  |  | intrinsic clearance | 25.7 µL/min/mg protein |
| CC[C@H]1[C@@H](O)[C@@H]2[C@H](CC[C@]3(C)[C@@H]([C@H](C)CCNC(=O)NS(=O)(=O)c4ccc(C(C)(C)C)cc4)CC[C@@H]23)[C@@]2(C)CC[C@@H](O)C[C@@H]12 | CYP3A4 | substrate | human, plasma | 10 mg, alone, study day 1 |  | Cmax mean | 33.4 ng/mL |
| CC1(C)CCC2(CC1)N[C@@H](C(=O)N[C@@H]1CC[C@@H](C(N)=O)OC1)[C@H](c1ccnc(Cl)c1F)[C@]21C(=O)Nc2cc(Cl)ccc21 | ATP-dependent translocase ABCB1 (ABCB1, Homo sapiens, UniProt P08183) |  | Caco-2 monolayers | 1 µM, 120 min, no inhibitor |  | Papp B to A | 18.2 ×10⁻⁶ cm/s |
| CC(C)NCC(O)COc1ccc(COCCOC(C)C)cc1 (centres unmarked) | H+/organic cation antiporter | cell uptake | hCMEC/D3 |  |  | intrinsic clearance | 13 µL/min/mg protein |
| COC(=O)c1ccc(C(=O)c2c[nH]c3ccccc23)nc1 | AHR | reporter gene, agonist | HepG2 | XRE-driven luciferase | baseline: ITE 10 µM | Emax | 4% |
| Cn1cc(-c2ccc(-c3cncc(Cl)c3N3CCC4(CCNC4=O)CC3)cc2)cn1 | COLO 205 | gene expression, microarray, item: HIST1H4L mRNA |  | concentration not given, 6 h | baseline: untreated cells | log2 fold change | -2.05 |
| C=C(F)C(=O)N1CCN(c2nc(OC[C@@H]3CCCN3C)nc3c2CCN(c2cccc4cccc(Cl)c24)C3)C[C@@H]1CC#N | CYP3A4 |  | healthy volunteers, plasma | 200 mg, geometric mean, with: itraconazole once daily |  | Cmax | 201 ng/mL |
| Nc1nc2c(ncn2[C@@H]2O[C@@H]3COP(=O)(O)O[C@H]3[C@H]2O)c(=O)[nH]1 | SLC22A7 |  | HEK293 control cells |  |  | uptake velocity | 1.5 ± 0.5 pmol/min/mg protein |
| C=CC(=O)N(C)CCOc1c(N)ncnc1-c1cc(F)cc(NC(=O)c2ccc(C3CC3)cc2F)c1C | CYP2B6 | recombinant enzyme | potassium phosphate buffer | pH 7.4 |  | fraction unbound in microsomal incubation | 0.93 |
| CCCCN1CCCC[C@H]1C(=O)Nc1c(C)cccc1C | H+/organic cation antiporter | cell uptake | hCMEC/D3 |  |  | intrinsic clearance | 6.6 µL/min/mg protein |
| Cc1cc(Nc2ncnc3ccc(NC4=NC(C)(CO)CO4)cc23)ccc1Oc1ccn2ncnc2c1 (centres unmarked) | CYP3A4 |  | human, plasma | oral, 300 mg tucatinib single dose, day 1, tucatinib alone |  | half-life (arithmetic mean) | 11.7 h |
| O=C1CC2(CCCC2)CC(=O)N1CCCCN1CCN(c2ncccn2)CC1 | H+/organic cation antiporter | cell uptake | hCMEC/D3 |  |  | intrinsic clearance | 11.3 µL/min/mg protein |
| Cc1cc(NC(=O)CCC(=O)O)nn1C | HDAC6 ZnF-UBD domain |  |  |  |  | Kd | > 1000 µM |
| Cc1cccc(C)c1NC(=O)C1CCCCN1C (centres unmarked) | H+/organic cation antiporter | cell uptake | hCMEC/D3 |  |  | intrinsic clearance | 10.9 µL/min/mg protein |
| COC(=O)c1ccccc1C(=O)c1c[nH]c2ccccc12 | AHR | reporter gene, agonist, XRE luciferase | HepG2 | 10 µM | baseline: ITE | activity at 10 µM | 30% |
| O=C1c2cccc3c2[C@H](CCC3)CN1[C@@H]1CN2CCC1CC2 | H+/organic cation antiporter | cell uptake | hCMEC/D3 |  |  | intrinsic clearance | 46.1 µL/min/mg protein |
| O=C(O)CNC(=O)c1ccc(C(=O)N2CCC(c3ccc(Cl)cc3)CC2)cn1 | HDAC6 ZnF-UBD domain |  |  |  |  | Kd | 415 µM |
| CCc1cc(/C(C)=N/OCc2ccc(C3CCCCC3)c(C(F)(F)F)c2)ccc1CN1CC(C(=O)O)C1 | enzymes other than CYP2C9 | in vitro reaction phenotyping | human liver microsomes |  |  | fraction metabolized | 0.207 |
| CC(CN(C)C)CN1c2ccccc2CCc2ccccc21 (centres unmarked) | H+/organic cation antiporter | cell uptake | hCMEC/D3 |  |  | intrinsic clearance | 100 µL/min/mg protein |

Repeated from above:
| Structure (SMILES) | tested on | assay | system | conditions | scale | measurement | result |
| --- | --- | --- | --- | --- | --- | --- | --- |
| C[S+](C)[O-] | human HLA-A*24:02 peptide complex | nanoDSF |  | 20% (v/v), pH 7.6, ramp 1.0 °C/min |  | melting temperature | 48.9 ± 0.1 °C |
| O=c1[nH]c(=O)c(Cc2cccc(C(F)(F)F)c2)c([C@H]2CC[C@H](c3ccccc3)CC2)[nH]1 | Solute carrier family 22 member 6 (SLC22A6, Homo sapiens, UniProt Q4U2R8) | uptake, inhibitor | HEK cells expressing SLC22A6 | with: tenofovir |  | IC50 | > 1 µM |
| CCCCC1=NC2(CCCC2)C(=O)N1Cc1ccc(-c2ccccc2S(=O)(=O)Nc2noc(C)c2C)c(COCC)c1 | CYP3A4 | substrate | human male, plasma | oral, with: itraconazole | baseline: with over without itraconazole | Cmax ratio | 1.25 |
| CC(C)NCC(O)COc1ccc(COCCOC(C)C)cc1 (centres unmarked) | H+/organic cation antiporter | cell uptake | hCMEC/D3 |  |  | intrinsic clearance | 13 µL/min/mg protein |
| Cc1cc(Nc2ncnc3ccc(NC4=NC(C)(C)CO4)cc23)ccc1Oc1ccn2ncnc2c1 | CYP3A4 |  | human, plasma | oral, 300 mg, day 1, single dose alone |  | AUC(0-inf), geometric mean | 3350 ng·h/mL |
| Cn1cc(-c2ccc(-c3cncc(Cl)c3N3CCC4(CCNC4=O)CC3)cc2)cn1 | COLO 205 | gene expression, microarray, item: HIST1H4L mRNA |  | concentration not given, 6 h | baseline: untreated cells | log2 fold change | -2.05 |
